Published values of several laboratories.
Protocols differ between the studies behind these lines. ± gives the spread as reported.
USP14: Ubiquitin carboxyl-terminal hydrolase 14 (USP14, Homo sapiens, UniProt P54578)
Rac GTPase-activating protein 1: Rac GTPase-activating protein 1 (Homo sapiens, UniProt Q9H0H5)
PRKAA1 with beta1, gamma3: 5'-AMP-activated protein kinase catalytic subunit alpha-1, with beta1, gamma3 (PRKAA1, Homo sapiens, UniProt Q13131)
AVPR1A: Vasopressin V1a receptor (AVPR1A, Homo sapiens, UniProt P37288)
PRKCG: Protein kinase C gamma type (PRKCG, Homo sapiens, UniProt P05129)
ELANE: Neutrophil elastase (ELANE, Homo sapiens, UniProt P08246)
F12: Coagulation factor XII (F12, Homo sapiens, UniProt P00748)

SMILES = O=C1NNC(c2ccccc2)=N/C1=C\c1ccco1; target = USP14; test = enzyme activity, inhibitor; setting = 17 µM; inhibition = 49%
SMILES = Cn1ccc2cc(-n3c(=O)[nH]c4sc5c(c4c3=O)CCCC5)ccc21; target = GABBR1 (Homo sapiens, UniProt Q9UBS5); test = radioligand binding; setting = 10 µM; inhibition = -11%
SMILES = O=C(CN1CCO[C@@H](COc2cccc(Cl)c2)C1)N1CCc2ccccc21; target = HTR7 (Homo sapiens, UniProt P34969); test = radioligand binding; setting = concentration not given, with: [3H]LSD; inhibition = -4%
SMILES = Cc1ccc(C(C2=C(O)CC(C)(C)CC2=O)C2=C(O)CC(C)(C)CC2=O)o1; target = Rac GTPase-activating protein 1; test = enzyme activity, inhibitor, ADP detection; setting = 10 µM; inhibition = 49.7%
SMILES = C=CC(=O)N1Cc2nc(-c3cc(-c4cc(Cl)cnc4Cl)c(F)cc3F)n(-c3ccncn3)c2C1; target = PRKAA1 with beta1, gamma3; test = kinome panel; setting = 1 µM; inhibition = 2.6%
SMILES = COc1ccc(C#CC2=C[C@H]3C[C@@]4(OC(=O)C=C24)[C@H]2CC[C@H](C(OC)OC)N32)cc1; target = AVPR1A; test = ligand displacement, radioligand; setting = 10 µM; inhibition = -24%
SMILES = CCOC(=O)c1cnc2c(C)cc(C)cc2c1NCCCN(C)C; target = Rac GTPase-activating protein 1; test = GAP activity, malachite green phosphate; setting = concentration not given, orthogonal retest; inhibition = 59.2%
SMILES = CC(=O)C12NC(C)(C)CC1(C)C(=O)C1=C2c2c(c3c4n2C(C)(C)CC2=C4C4(CC(C)(C)NC(C)(C4)C2=O)CC3(C)C)C(=O)C(C)(C)N1 (single isomer, unassigned; (-)); target = SCN10A (Homo sapiens, UniProt Q9Y5Y9); test = sodium current, antagonist, whole-cell patch clamp; system = HEK293T cells; setting = 10 µM, resting state (TP1); inhibition = 32.92 ± 0.06%
SMILES = COc1ccc2c(c1)CCc1sc(N)nc1-2; target = Rac GTPase-activating protein 1; test = enzyme activity, inhibitor, ADP detection; setting = 20 µM; inhibition = 91.4%
SMILES = COCC(=O)N1CCc2cc(-c3csc(NC(=O)c4cc(OC)cc(OC)c4)n3)ccc21; target = Cacna1c (Rattus norvegicus, UniProt P22002); system = rat; setting = 10 µM; inhibition = 16%
SMILES = C[Si](C)(C)C[C@@H](CN)CC(=O)O; target = glycine transporter, mouse; test = binding, radioligand binding; setting = 75 µM, with: [3H]glycine; inhibition = -3%
SMILES = O=C1C=C(N2CCOCC2)C(=O)N1c1ccc(Cl)cc1; target = USP14; test = enzyme activity, inhibitor; setting = 17 µM; inhibition = 14%
SMILES = Cc1[nH]nc2c1N=C(c1ccccc1Cl)c1cnc(N3CCOCC3)cc1N2; target = SIGMAR1 (Homo sapiens, UniProt Q99720); test = cell-free assay; setting = 10 µM; inhibition = -4%
SMILES = Cc1cc(O)c2c(c1O)C(=O)c1cc(O)cc(O)c1C2=O; target = AVPR1A; test = calcium mobilization, antagonist, fluorimetry; setting = 50 µM, with: 10 nM vasopressin; inhibition = 50 ± 2.12%
SMILES = N=C(N)NCCCC(NC(=O)C(CC(=O)NO)Cc1ccc2ccccc2c1)C(=O)NC(Cc1c[nH]c2ccccc12)C(=O)NC(CCC(=O)O)C(N)=O (centres unmarked); target = Matrix metalloproteinase-15 (Homo sapiens, UniProt P51511); setting = 1 µM; inhibition = 9%
SMILES = O=C1c2sc(-c3ccc(N4CCC(CO)CC4)nc3F)nc2CCN1c1cccnc1; target = HTR2B (Homo sapiens, UniProt P41595); test = ligand displacement, radioligand; setting = 1 µM; inhibition = -13%
SMILES = C#CC[C@]1(O)C[C@H](C)N2CCc3cc(OCc4cc(C)cc(C)c4)c(OCc4cc(C)cc(C)c4)cc3[C@@H]2C1 (relative stereo); target = Rab GDP dissociation inhibitor beta, with Rab1A (Homo sapiens, UniProt P50395); test = GDI2-Rab1A interaction, NanoLuc complementation; setting = 6.25 µM; inhibition = 72.8%
SMILES = O=C(CSc1nnc2c(n1)CCCC2)c1ccc(N2CCCC2=O)cc1; target = USP14; test = enzyme activity, inhibitor; setting = 17 µM; inhibition = 58%
SMILES = COc1ccc2c(c1)-c1nc(N)sc1CC2; target = Rac GTPase-activating protein 1; test = enzyme activity, inhibitor, ADP detection; setting = 20 µM; inhibition = 97.5%
SMILES = CSC1=NSC2=NC(=O)C(=Cc3ccc(O)c(O)c3)C(=N)N12; target = USP14; test = enzyme activity, inhibitor; setting = 17 µM; inhibition = 6%
SMILES = C=CC(=O)Nc1cccc(-c2cnc3[nH]cc(C(=O)NC(C)(C)C)c3n2)c1; target = PRKCG; test = enzyme activity, inhibitor; setting = 0.1 µM; inhibition = 31%
SMILES = NC(=S)N/N=C1\C(=O)Nc2ccccc21; target = USP14; test = enzyme activity, inhibitor; setting = 17 µM; inhibition = 8%
SMILES = Cc1ccc(CNC(=O)C(CCc2ccccc2)NC(=O)C(NC(=O)Cc2cccc(Oc3ccccc3)c2)C(C)O)cc1 (centres unmarked); target = ELANE; test = enzyme activity, inhibitor; setting = 100 µM; inhibition = -3%
SMILES = CN(C)C/C=C/C(=O)Nc1ccc2nc(NCCCCCN(C)C)nc(NCCCCCCN(C)C)c2c1; target = SETD7 (Homo sapiens, UniProt Q8WTS6); test = enzyme activity, inhibitor, radiometric; setting = 50 µM; inhibition = 59%
SMILES = C[C@H](NC(=O)[C@H](CC(=O)NCC(C)(C)C)NC(=O)C(=O)c1c[nH]c2ccccc12)C(=O)NCc1ccc(F)cc1F; target = F12; test = enzyme activity, inhibitor; setting = 100 µM; inhibition = 40%
SMILES = O=c1ccsn1Cc1ccccc1; target = Rac GTPase-activating protein 1; test = GAP activity, malachite green phosphate; setting = concentration not given, orthogonal retest; inhibition = 108%
SMILES = CN1CCN(Cc2ccc(-c3ccc(CO[C@H]4CCC[C@@H]4NC(=O)c4cc(-c5cnn(C)c5)cnc4N)cc3)cc2)CC1; target = MASTL (Homo sapiens, UniProt Q96GX5); test = enzyme activity, inhibitor; setting = 0.1 µM; inhibition = 7%
SMILES = Clc1cccc2c(NCCCN3CCOCC3)cnnc12; target = USP14; test = enzyme activity, inhibitor; setting = 17 µM; inhibition = 25%
SMILES = Cc1ccc(CNC(=O)[C@H](CCc2ccccc2)NC(=O)[C@H](CCc2ccccc2)NC(=O)Cc2cccc(Oc3ccccc3)c2)cc1; target = ELANE; test = enzyme activity, inhibitor; setting = 100 µM; inhibition = -6%
SMILES = O=C(O)C(=O)N[C@H](Cc1ccc(O)cc1)C(=O)O; target = KDM4E (Homo sapiens, UniProt B2RXH2); test = H3K9me3 demethylation, FDH-coupled; setting = concentration not given; inhibition = 8%
SMILES = CCn1cc(C(=O)O)c(=O)c2c(N)c(F)c(NC3CCCCC3)cc21; target = PRKAA1 with beta1, gamma3; test = kinase activity; setting = 0.1 µM, with: ATP at Km; inhibition = 16.4%
SMILES = O=C(Nc1ccc(C(F)F)cc1)[C@H](CC1CCCCC1)Nc1nn2c(=O)ccnc2s1; target = Low molecular weight phosphotyrosine protein phosphatase, isoform A (ACP1, Homo sapiens, UniProt P24666); test = enzyme activity, inhibitor; setting = 10 µM, LMPTP-A isoform; inhibition = 4%
SMILES = Nc1ccc2c(c1)OC1(CCCCC1)O2; target = Rac GTPase-activating protein 1; test = enzyme activity, inhibitor, ADP detection; setting = 20 µM; inhibition = 47.3%
SMILES = COc1ccc(S(=O)(=O)N2CCc3ccccc3C2)cc1N1CCN(C(=O)c2ccc(F)cc2C(F)(F)F)CC1; target = Oprk1 (Rattus norvegicus, UniProt P34975); test = cell-free assay; setting = 1 µM; inhibition = 0.8%
SMILES = C[Si]1(C[C@H](CN)CC(=O)O)CCCC1; target = GABAA receptor, rat; test = binding, radioligand binding; setting = 70 µM, with: [3H]muscimol; inhibition = 3%
SMILES = CCn1cc(-c2cccc(C(F)(F)F)c2)c2sc(C(=N)NC3CCS(=O)(=O)CC3)cc2c1=O; target = EP300 (Homo sapiens, UniProt Q09472); setting = 1 µM; inhibition = 24%
SMILES = CC(=O)c1ccc2c3c(cccc13)NC(C)=N2; target = Rac GTPase-activating protein 1; test = enzyme activity, inhibitor, ADP detection; setting = 10 µM; inhibition = 26.9%
SMILES = COc1cccc(-c2cccc(N3CCNCC3)c2)c1; target = srtA (Staphylococcus aureus, UniProt Q2FV99); test = enzyme activity, inhibitor; setting = 200 µM; inhibition = 63.7%
SMILES = Brc1ccc(CNc2ccc3cn[nH]c3c2)s1; target = USP14; test = enzyme activity, inhibitor; setting = 17 µM; inhibition = 75%
SMILES = CC(C)NC(=O)[C@H](CCc1ccccc1)NC(=O)[C@H](CC(=O)NCC(C)(C)C)NC(=O)CCc1ccccc1; target = F12; test = enzyme activity, inhibitor; setting = 100 µM; inhibition = 35%
SMILES = CCOC(=O)N1CCN(c2cc(NCCCC(=O)O)c3c4c(onc24)-c2ccccc2C3=O)CC1; target = USP14; test = enzyme activity, inhibitor; setting = 17 µM; inhibition = 68%
SMILES = Cc1cccc(O[C@H]2CCC[C@@H](C(C)CNCc3ccncc3)C2)c1 (relative stereo); target = PRKCG; test = enzyme activity; setting = 10 µM; inhibition = -9%
SMILES = Cc1ccc(CN(C)C(=O)C(CCc2ccccc2)NC(=O)C(NC(=O)c2ccc(OCc3ccccc3)cc2)C(C)O)cc1 (centres unmarked); target = ELANE; test = enzyme activity, inhibitor; setting = 100 µM; inhibition = 0%
SMILES = Clc1ccc(NCc2ccc(Br)cc2)cc1; target = Rac GTPase-activating protein 1; test = enzyme activity, inhibitor, ADP detection; setting = 20 µM; inhibition = 72.2%
